# Measured values collected from several papers.
# Lines come from different studies, so protocols differ. Several values in a cell are separate wells, animals, samples, runs or records. ± marks the error that the study gave.
SMILES,cell line,assay,system,conditions,how to read,measurement,result
COC(=O)NC(C(=O)NN(Cc1ccc(Br)cc1)CC(O)(Cc1ccccc1)C(=O)Nc1cccc(O)c1C)C(C)(C)C (stereo not drawn),Caco-2,,,"pH 7.4, 1% BSA in receiver",,Papp B-to-A,190 ± 10 ×10⁻⁶ cm/s
CN(C)C(=O)C1CN1S(=O)(=O)c1cccc2c(N(C)C)cccc12 (stereo not drawn),Balb/c 3T3 fibroblasts,"cytotoxicity, neutral red uptake",DMEM with 5% FBS,24 h,,IC50,13 ± 1 µM
COc1ccc(Nc2c(C#N)cnc3ccc(Cl)cc23)cc1,mouse primary embryonic cardiomyocytes,resazurin,,"72 h, together with: 30 µM heme",,CC50,> 100 µM
COc1ccc(-c2coc3c(CC=C(C)C)c(O)c(CC=C(C)C)c(O)c3c2=O)cc1O,RAW264.7,"cell growth or viability, MTT",,"12.5 µg/mL, 24 h",,viability,132%
CCCN(CC(=O)N(CCC)CC(=O)N(CCC)CC(=O)N(CCC)CC(=O)N(CC(=O)N(CCC)CC(=O)N(CCC)CC(=O)N(CCC)CC(=O)N(CCC)CC(=O)N(CC(=O)N(CCC)CC(=O)N(CCC)CC(=O)N(CCC)CC(=O)N(CCC)CC(=O)N(CC(N)=O)Cc1cn(CCCNC(=O)CCCOc2cccc(-c3nc4ccc(-c5nc6ccc(N7CCN(C)CC7)cc6[nH]5)cc4[nH]3)c2)nn1)Cc1cn(CCCNC(=O)CCCOc2cccc(-c3nc4ccc(-c5nc6ccc(N7CCN(C)CC7)cc6[nH]5)cc4[nH]3)c2)nn1)Cc1cn(CCCNC(=O)CCCOc2cccc(-c3nc4ccc(-c5nc6ccc(N7CCN(C)CC7)cc6[nH]5)cc4[nH]3)c2)nn1)C(=O)CNCc1cn(CCCNC(=O)CCCOc2cccc(-c3nc4ccc(-c5nc6ccc(N7CCN(C)CC7)cc6[nH]5)cc4[nH]3)c2)nn1,C2C12,flow cytometry,,"5 µM, 14 h",,non-fluorescent cells,17%
COc1cc2c(cc1O)[C@]1(O)C(=O)c3c(O)cc4c(c3O[C@@H]1CO2)C=CC(C)(C)O4,A549,"cell growth or viability, MTT",,25 µg/mL,,viability,99.2%
CCCN(CC(=O)N(CCC)CC(=O)N(CCC)CC(=O)N(CCC)CC(=O)N(CC(=O)N(CCC)CC(=O)N(CCC)CC(=O)N(CCC)CC(=O)N(CCC)CC(=O)N(CC(N)=O)Cc1cn(CCCNC(=O)CCCOc2cccc(-c3nc4ccc(-c5nc6ccc(N7CCN(C)CC7)cc6[nH]5)cc4[nH]3)c2)nn1)Cc1cn(CCCNC(=O)CCCOc2cccc(-c3nc4ccc(-c5nc6ccc(N7CCN(C)CC7)cc6[nH]5)cc4[nH]3)c2)nn1)C(=O)CNCc1cn(CCCNC(=O)CCCOc2cccc(-c3nc4ccc(-c5nc6ccc(N7CCN(C)CC7)cc6[nH]5)cc4[nH]3)c2)nn1,C2C12,flow cytometry,,"5 µM, 48 h",,non-fluorescent cells,24%
CCCCCCCCCC(=O)NCCCC[C@@H](NC(=O)[C@@H](CC(C)C)NC(=O)[C@@H](CCCCN)NC(=O)[C@@H](CCCCNC(=O)[C@@H](CC(C)C)NC(=O)[C@@H](CCN)NC(=O)[C@@H](CCCCNC(=O)[C@@H](Cc1ccccc1)NC(=O)[C@H](N)CCCN)NC(=O)[C@@H](Cc1ccccc1)NC(=O)[C@H](N)CCCN)NC(=O)[C@@H](CC(C)C)NC(=O)[C@@H](CCN)NC(=O)[C@@H](CCCCNC(=O)[C@@H](Cc1ccccc1)NC(=O)[C@H](N)CCCN)NC(=O)[C@@H](Cc1ccccc1)NC(=O)[C@H](N)CCCN)C(N)=O,human red blood cells,haemolysis,,"4 h, pH 7.4, 25 °C",,minimum haemolytic concentration,500 µg/mL
CN(C)C(=O)C1CN1S(=O)(=O)c1cccc2cc(N(C)C)ccc12 (stereo not drawn),Balb/c 3T3 fibroblasts,"cytotoxicity, neutral red uptake",DMEM with 5% FBS,24 h,,IC50,22 ± 2 µM
CCCCCCCCCCCC(=O)O[C@@H](C(=O)O[C@H]1C[C@@]2(O)[C@@H](OC(=O)c3ccccc3)[C@@H]3[C@]4(OC(C)=O)CO[C@@H]4C[C@H](O)[C@@]3(C)C(=O)[C@H](O)C(=C1C)C2(C)C)[C@@H](NC(=O)OC(C)(C)C)c1ccccc1,DU-145,MTT,,48 h,"reference: docetaxel, higher = less active",potency relative to docetaxel,20.6 fold
CC1(C)CCCC(C)(C2CCC3(C)C2C(O)CC2C4(C)CCC(OC(=O)NC5CCCCC5)C(C)(C)C4C(O)CC23C)O1 (stereo not drawn),Hep3B,"cell growth or viability, MTT",,24 h,,IC50,> 30 µM
CCCCCCc1ccc(S(=O)(=O)N2CC2C(=O)OC)cc1 (stereo not drawn),Balb/c 3T3 fibroblasts,"cytotoxicity, neutral red uptake",DMEM with 5% FBS,24 h,,IC50,6.3 ± 4.2 µM
COc1cc(CN2CCN(c3ccc(OC(F)(F)F)cc3)CC2)c2cc3[n+](cc2c1O)CCc1cc2c(cc1-3)OCO2,MDCK,"cell growth or viability, SRB",,48 h,,CC50,159 µg/mL
Nc1ncnc2c1ccn2[C@@H]1O[C@H](CO)C[C@H]1O,MRC-5 SV2,"cytotoxicity, resazurin",medium with 5% FBS,72 h,,EC50,> 64 µM
CC1(C)CCCC(C)(C2CCC3(C)C2C(O)CC2C4(C)CCC(OC(=O)NCc5ccccc5)C(C)(C)C4C(O)CC23C)O1 (stereo not drawn),Hep3B,"cell growth or viability, MTT",,24 h,,IC50,> 30 µM
N=C(N)NCCC[C@@H]1NC(=O)[C@H](CCCNC(=N)N)NC(=O)[C@H](CCCNC(=N)N)NC(=O)[C@H](Cc2c[nH]c3ccccc23)NC(=O)[C@H](Cc2ccc3ccccc3c2)NC(=O)[C@H](Cc2ccc3ccccc3c2)NC(=O)[C@H](CCCNC(=N)N)NC1=O,human red blood cells,hemolysis,,,,HC50,105 µg/mL
Nc1ncnc2c1c(Cl)cn2[C@@H]1O[C@H](CO)C[C@H]1O,MRC-5 SV2,"cytotoxicity, resazurin",medium with 5% FBS,72 h,,EC50,9.9 ± 1.5 µM
CC(C)=CCc1c2c(c(O)c3c(=O)c(-c4ccc(O)cc4)coc13)CC(C(C)(C)O)O2 (stereo not drawn),RAW264.7,"cell growth or viability, MTT",,"6.25 µg/mL, 24 h",,viability,138%
CC1(C)CCCC(C)(C2CCC3(C)C2C(O)CC2C4(C)CCC(O)C(C)(C)C4C(OC(=O)c4cn(-c5ccc(Cl)cc5)nn4)CC23C)O1 (stereo not drawn),Hep3B,"cell growth or viability, MTT",,24 h,,IC50,> 30 µM
Nc1ncnc2c1c(-c1ccccn1)cn2[C@@H]1O[C@H](CO)[C@@H](O)[C@H]1O,MRC-5 SV2,"cytotoxicity, resazurin",medium with 5% FBS,72 h,,EC50,15.1 ± 4.1 µM
CNC(=O)C(Cc1ccccc1)NC(=O)C(O)(Cc1ccccc1)CN(Cc1ccc(Br)cc1)NC(=O)C(NC(=O)OC)C(C)(C)C (stereo not drawn),Caco-2,,,"pH 7.4, 1% BSA in receiver",,Papp B-to-A,53.4 ± 3.8 ×10⁻⁶ cm/s
CCCCCCCCCC(=O)N[C@@H](Cc1ccccc1)C(=O)N[C@@H](Cc1ccccc1)C(=O)N[C@@H](Cc1ccccc1)C(=O)N[C@@H](Cc1ccccc1)C(=O)N[C@@H](CCCCN)C(=O)N[C@@H](CCCCN)C(=O)N[C@@H](CCCCN)C(=O)N[C@@H](CCCCN)C(=O)N[C@@H](CCCCN)C(N)=O,human red blood cells,haemolysis,,,,HC50,< 32 µg/mL and > 32 µg/mL
CC1(C)CCN(Cc2ccc(C(=O)NC[C@]3(O)CCCN(c4cc(NCc5ccccc5)ncn4)C3)c(O)c2)CC1,Caco-2,,,"10 µM, 90 min, basolateral to apical",,Papp,28.8 ×10⁻⁶ cm/s
CC1(C)CCCC(C)(C2CCC3(C)C2C(O)CC2C4(C)CCC(OC(=O)C=Cc5ccccc5)C(C)(C)C4C(OC(=O)C=Cc4ccccc4)CC23C)O1 (stereo not drawn),Hep3B,"cell growth or viability, MTT",,24 h,,IC50,> 30 µM
COC(=O)NC(C(=O)NN(Cc1ccc(-c2ccccc2)cc1)CC(O)(Cc1ccccc1)C(=O)NC1c2ccccc2CC1O)C(C)(C)C (stereo not drawn),Caco-2,,,"pH 7.4, 1% BSA in receiver",,Papp A-to-B,80.8 ± 6.6 ×10⁻⁶ cm/s
N=C(N)c1ccc(-c2ccc(-c3nc4ccc(C(=N)N)cc4[nH]3)[se]2)cc1,HEK293 cells,"viability, resazurin reduction",,"24 h, 10% fetal bovine serum",up to,maximum non-toxic concentration,> 10 µM
CCCCCCc1ccc(S(=O)(=O)N2CC2C(=O)NC)cc1 (stereo not drawn),Balb/c 3T3 fibroblasts,"cytotoxicity, neutral red uptake",DMEM with 5% FBS,24 h,,IC50,9.9 ± 2.3 µM
C=C1C(=O)OC2C1CCC1(C)CC1CCC1(C)OC21 (stereo not drawn),human bone marrow cells,Annexin V/7-AAD flow cytometry,,"25 µM, 12 h",reference: untreated,viability reduction,22 to 26%
CCCCCCc1ccc(S(=O)(=O)N2CC2C(=O)N2CCCC2)cc1 (stereo not drawn),Balb/c 3T3 fibroblasts,"cytotoxicity, neutral red uptake",DMEM with 5% FBS,24 h,,IC50,10 ± 2 µM
CC(=O)N[C@H](C(=O)N[C@H](C(=O)N[C@@H](CCCNC(=N)N)C(=O)N1Cc2ccccc2C[C@H]1C(=O)N[C@@H](Cc1ccccc1)C(N)=O)C1CCCCC1)C(C)C,human PBMC,"Bio-Plex multiplex, item: IL-6",,"250 µg/mL, 24 h",,cytokine level,964 ± 1370 pg/mL
CNC(=S)Nc1cccc([N+](=O)[O-])c1,MDCK,,,at solubility limit,,cytotoxicity,not toxic
COC(=O)C1CN1S(=O)(=O)c1ccc2cccc(N(C)C)c2c1 (stereo not drawn),Balb/c 3T3 fibroblasts,"cytotoxicity, neutral red uptake",DMEM with 5% FBS,24 h,,IC50,18 ± 3 µM
CC1(C)CCCC(C)(C2CCC3(C)C2C(O)CC2C4(C)CCC(O)C(C)(C)C4C(OC(=O)NCc4ccccc4)CC23C)O1 (stereo not drawn),Hep3B,"cell growth or viability, MTT",,24 h,,IC50,> 30 µM

# For quick reference, copied from above:
SMILES,cell line,assay,system,conditions,how to read,measurement,result
Nc1ncnc2c1c(Cl)cn2[C@@H]1O[C@H](CO)C[C@H]1O,MRC-5 SV2,"cytotoxicity, resazurin",medium with 5% FBS,72 h,,EC50,9.9 ± 1.5 µM
CC1(C)CCCC(C)(C2CCC3(C)C2C(O)CC2C4(C)CCC(OC(=O)NC5CCCCC5)C(C)(C)C4C(O)CC23C)O1 (stereo not drawn),Hep3B,"cell growth or viability, MTT",,24 h,,IC50,> 30 µM
Nc1ncnc2c1ccn2[C@@H]1O[C@H](CO)C[C@H]1O,MRC-5 SV2,"cytotoxicity, resazurin",medium with 5% FBS,72 h,,EC50,> 64 µM
